{"data": "Results of several laboratories", "GUK1": "GUK1 (Homo sapiens, UniProt Q16774)", "HTR2C": "5-hydroxytryptamine receptor 2C (HTR2C, Homo sapiens, UniProt P28335)", "note": "Protocols differ between the studies behind these lines. Values joined by “and” are separate records of one study, mostly repeats; a detail may differ. Numbers after ± are the reported error."}
{"SMILES": "O=C(O)C1CCCNC1 (stereo not shown)", "target": "SLC6A6 (Homo sapiens, UniProt P31641, Y138A)", "test": "binding, microscale thermophoresis", "setting": "30.5 nM, fitted curve", "scale": "higher = more binding", "endpoint": "fraction bound", "result": 0.00151}
{"SMILES": "NC(=O)C1=CN([C@@H]2O[C@H](COP(=O)(O)OP(=O)(O)OC[C@H]3O[C@@H](n4cnc5c(N)ncnc54)[C@H](O)[C@@H]3O)[C@@H](O)[C@H]2O)C=CC1", "target": "FSP1, ancestral", "test": "oxidase activity, substrate, refers to: superoxide, nitroblue tetrazolium", "setting": "with: atmospheric O2", "endpoint": "kcat", "result": "0.51 ± 0.04 s⁻¹"}
{"SMILES": "Nc1nc2c(ncn2[C@@H]2O[C@H](COP(=O)(O)O)[C@@H](O)[C@H]2O)c(=O)[nH]1", "target": "GUK1", "test": "substrate, NADH-coupled", "setting": "KCl 10 mM, enzyme 2 nM", "endpoint": "Vmax", "result": "0.125 µM/s"}
{"SMILES": "CC[C@@H]1[C@H](F)C(=O)N[C@@H]1COc1nccc2cc(C(N)=O)c(OC)cc12", "target": "CAMK2B (Homo sapiens, UniProt Q13554)", "test": "ATP-site probe binding, ActivX profiling", "system": "THP-1 cell lysate", "setting": "0.2 mM, Lys1 site", "endpoint": "inhibition", "result": "4.9%"}
{"SMILES": "c1ccc(OC[C@@H]2CN(CCN3CCc4ccccc43)CCO2)cc1", "target": "HTR2C", "test": "radioligand binding", "setting": "concentration not given, with: [3H]mesulergine", "endpoint": "inhibition", "result": "70.5%"}
{"SMILES": "COc1cc(Nc2ncc3c(n2)-c2ccc(Cl)cc2C(c2c(F)cccc2OC)=NC3)ccc1C(=O)O", "target": "MAP3K9", "test": "kinase activity", "setting": "1 µM", "endpoint": "remaining activity", "result": "55%"}
{"SMILES": "N#Cc1ccc2c(-c3ccncc3)c(-c3ccc(F)cc3)nn2c1", "target": "Protein kinase C-like 1 (Candida albicans, UniProt P43057)", "test": "kinase binding, competitor, MIB/MS competition, refers to: PKC1", "system": "Candida albicans cell lysate", "setting": "1 µM", "scale": "baseline: DMSO", "endpoint": "log2 fold change", "result": -0.0562}
{"SMILES": "CCCCC[S+]([O-])c1n[nH]c(N)n1 (stereo not shown)", "target": "WD repeat-containing protein 55 (WDR55, Homo sapiens, UniProt Q9H6Y2)", "test": "binding, affinity selection mass spectrometry", "scale": "baseline: other proteins in batch", "endpoint": "fold enrichment", "result": 1.35}
{"SMILES": "CCCCC[C@H](O)/C=C/[C@H]1[C@@H]2CO[C@@H](C2)[C@@H]1C/C=C\\CCCC(=O)O", "target": "TBXA2R (Homo sapiens, UniProt P21731)", "test": "radioligand binding, antagonist", "setting": "reference compound", "endpoint": "Hill coefficient", "result": 0.9}
{"SMILES": "[H]/N=C(/N)NCC(=O)O", "target": "SLC6A6 (Homo sapiens, UniProt P31641, G62A)", "test": "binding, microscale thermophoresis", "setting": "977 nM, room temperature, with: 50 nM labelled protein", "scale": "higher = more binding", "endpoint": "normalised MST signal", "result": -0.00487}
{"SMILES": "CC(O)(CC(=O)O)C(=O)O (stereo not shown)", "target": "Uncharacterized protein (Pelagibacter ubique, UniProt Q4FKX4)", "test": "differential scanning fluorimetry", "system": "Candidatus Pelagibacter ubique", "setting": "in-house screen", "endpoint": "thermal shift", "result": "2.7 °C"}
{"SMILES": "CC1(C)CC2(C)OC(=O)NC2(C)c2ccccc21 (stereo not shown)", "target": "STUB1 (Homo sapiens, UniProt Q9UNE7)", "test": "binding, affinity selection mass spectrometry", "scale": "baseline: other proteins in batch", "endpoint": "fold enrichment", "result": 0.992}
{"SMILES": "Cc1cc(-c2ccnc3[nH]cc(F)c23)cc(F)c1[C@@]1(O)[C@H](C)CN(C(=O)CN)C[C@@H]1C", "target": "Aurora kinase B (AURKB, Homo sapiens, UniProt Q96GD4)", "test": "ATP/ADP probe binding, KiNativ", "system": "HEK293T lysate", "setting": "10 µM, Lys1 peptide", "endpoint": "probe labelling inhibition", "result": "34.8%"}
{"SMILES": "Nc1ncnc2c1ncn2[C@@H]1O[C@H](COP(=O)(O)CP(=O)(O)OP(=O)(O)O)[C@@H](O)[C@H]1O", "target": "P2X purinoceptor 1 (P2RX1, Homo sapiens, UniProt P51575, S286A)", "test": "calcium influx", "setting": "100 nM", "scale": "baseline: ionomycin response", "endpoint": "calcium influx", "result": "43.6% and 26.3% and 37.5% and 40.2%"}
{"SMILES": "N=C(N)Nc1nc2ccccc2[nH]1", "target": "HVCN1 (Homo sapiens, UniProt Q96D96, F150A/F182W)", "test": "proton current, inhibitor, inside-out patch clamp", "endpoint": "Hill coefficient", "result": "0.91 ± 0.03"}
{"SMILES": "Nc1ccc(C(=O)O)cc1", "target": "BEST1, with wild-type BEST1 (Homo sapiens, UniProt O76090, R218H)", "test": "ion current, whole-cell patch clamp", "system": "HEK293 co-expressing mutant and wild-type", "setting": "concentration not given, voltage -80 mV", "endpoint": "current density", "result": "-8.13 pA/pF and -20.2 pA/pF and -18.4 pA/pF and -10.4 pA/pF and -3.21 pA/pF and -28.4 pA/pF and -12.5 pA/pF and -3.66 pA/pF"}
{"SMILES": "N[C@@H](CCC(=O)O)C(=O)O", "target": "uncharacterized protein (Ixodes scapularis, UniProt A0A0N9E2I2)", "test": "two-electrode voltage clamp", "system": "Xenopus oocytes", "setting": "extracellular Cl- 37.6 mM", "endpoint": "reversal potential", "result": "4.1 ± 1.9 mV"}
{"SMILES": "Nc1ncnc2c1ncn2[C@@H]1O[C@H](COP(=O)(O)OP(=O)(O)OP(=O)(O)O)[C@@H](O)[C@H]1O", "target": "P2X purinoceptor 7 (P2rx7, Rattus norvegicus, UniProt Q64663, I214A/Q143A)", "test": "ion current, agonist, two-electrode voltage clamp", "system": "Xenopus laevis oocytes", "setting": "33 µM", "scale": "baseline: highest concentration response", "endpoint": "normalized current", "result": "0 and 0.01 and 0.03"}
{"SMILES": "O=C(COP(=O)(O)O)[C@@H](O)[C@H](O)[C@H](O)COP(=O)(O)O", "target": "Peroxisomal bifunctional enzyme (EHHADH, Homo sapiens, UniProt Q08426)", "test": "thermal proteome profiling, refers to: EHHADH", "system": "HepG2 cell lysate", "setting": "concentration not given, 57 over 37 °C, mean", "scale": "baseline: compound over control", "endpoint": "thermal stability ratio", "result": 0.59}
{"SMILES": "O=c1nc(SCc2ccc(C(F)(F)F)cc2)nc(SCc2csc3ccc(Cl)cc23)[nH]1", "target": "TOP2A (Homo sapiens, UniProt P11388)", "test": "DNA relaxation", "setting": "31.25 µM, replicate 2", "endpoint": "relaxed DNA", "result": "0.7%"}
{"SMILES": "C[C@H](O)c1cnc(NS(=O)(=O)c2ccc(Cl)c(Cl)c2)nc1", "target": "17-beta-hydroxysteroid dehydrogenase 13 (Homo sapiens, UniProt Q7Z5P4)", "test": "substrate, NADH fluorescence", "endpoint": "Km", "result": "36 µM"}
{"SMILES": "Nc1ncnc2c1ncn2[C@@H]1O[C@H](CO[P@](=O)(O)O[P@](=O)(O)O[P@@](=O)(O)S)[C@@H](O)[C@H]1O", "target": "GUK1", "test": "binding, isothermal titration calorimetry", "setting": "molar ratio 0.9041, fitted curve", "endpoint": "ΔH", "result": "-4.68 kJ/mol"}
{"SMILES": "Clc1cccc(OC[C@H]2CN(CCN3CCc4ccccc43)CCO2)c1", "target": "HTR2A (Homo sapiens, UniProt P28223)", "test": "radioligand binding", "setting": "concentration not given, with: [3H]ketanserin", "endpoint": "inhibition", "result": "60.8%"}
{"SMILES": "C[C@H]1O[C@H](O[C@H]2[C@H](O)[C@@H](O)[C@@H](O[C@H]3[C@H](O)[C@@H](O)C(O)O[C@@H]3CO)O[C@@H]2CO)[C@H](O)[C@@H](O)[C@@H]1N[C@H]1C=C(CO)[C@@H](O)[C@H](O)[C@H]1O (stereo partly shown)", "target": "Glycoside hydrolase family 13 protein (Bacteroides ovatus, UniProt A0ABU3INP3)", "test": "uncompetitive inhibitor", "setting": "pH 7.0, with: pNP-G6 substrate", "endpoint": "Ki", "result": "0.123 ± 0.0092 µM"}
{"SMILES": "Cc1ccc(OC[C@H]2CN(CCN3CCc4ccccc43)CCO2)cn1", "target": "HTR2C", "test": "radioligand binding", "setting": "concentration not given, with: [3H]mesulergine", "endpoint": "inhibition", "result": "1.6%"}
{"SMILES": "COc1cc(-c2cncc3c2CN(C)Cc2cc(N4CCNCC4)ccc2-3)cc(OC)c1OC", "target": "DAPK3 (Homo sapiens, UniProt O43293)", "test": "kinase activity", "setting": "1 µM, human enzyme, with: ATP 10 µM", "scale": "baseline: DMSO control", "endpoint": "remaining activity", "result": "108%"}
{"SMILES": "CCCCCC(O)C(CC=O)SC[C@H](NC(C)=O)C(=O)O (stereo partly shown)", "target": "N-acyl-aromatic-L-amino acid amidohydrolase (carboxylate-forming) (Acy3, Mus musculus, UniProt Q91XE4)", "test": "substrate, fluorescamine", "setting": "without Co2+", "endpoint": "kcat", "result": "0.27 s⁻¹"}
{"SMILES": "CN1CCN(c2cc(-c3ccncc3)c(-c3ccc4ccccc4c3)nn2)CC1", "target": "GHSR (Homo sapiens, UniProt Q92847)", "test": "agonist, FLIPR", "setting": "12.5 µM", "endpoint": "activation", "result": "-3.7%"}
{"SMILES": "Cc1cccc(N2CC(C(=O)O)CC2=O)c1 (stereo not shown)", "target": "Histone acetyltransferase type B catalytic subunit (Homo sapiens, UniProt O14929)", "test": "binding, affinity selection mass spectrometry", "scale": "baseline: other proteins in batch", "endpoint": "fold enrichment", "result": 1.1}
{"SMILES": "COc1ccccc1N1CCN(CCCCN2CCc3ccccc3C2=O)CC1", "target": "HTR7 (Homo sapiens, UniProt P34969)", "test": "radioligand binding", "setting": "concentration not given, with: [3H]LSD", "endpoint": "inhibition", "result": "98.2%"}
{"SMILES": "CCC1(O)CCCN(C(=O)c2ccc(-c3ccc(F)c(NC(=O)CCl)c3)cc2)C1 (stereo not shown)", "target": "DNA dC->dU-editing enzyme APOBEC-3B, C-terminal domain (Homo sapiens, UniProt Q9UH17)", "test": "covalent modifier, intact protein mass spectrometry, refers to: adduct +26104 Da", "setting": "25 µM, 3 h, 1-fold molar excess", "endpoint": "protein adduct", "result": "0%"}
{"SMILES": "Cc1cc(=O)oc2cc(O)ccc12", "target": "UGT1A9 (Homo sapiens, UniProt O60656)", "test": "glucuronidation, substrate", "system": "recombinant enzyme", "endpoint": "Vmax", "result": "3650 pmol/min/mg"}
{"SMILES": "[O-][S+]1CCCCS1 (stereo not shown)", "target": "SOD1 (Homo sapiens, UniProt P00441, G94A)", "test": "intact protein LC-MS", "system": "SOD1 G93A transgenic mice, whole blood", "setting": "oral, 150 mg/kg, 72 h, mean of two mice", "endpoint": "target engagement", "result": "17.2 % cross-linked dimer"}
{"SMILES": "COc1cc(O)c2c(c1)oc(=O)c1c3cc(O)c(O)cc3oc21", "target": "MAL12 (Saccharomyces cerevisiae S288c, UniProt P53341)", "test": "inhibitor, Lineweaver-Burk plot", "setting": "enzyme-substrate complex binding", "endpoint": "Kis", "result": "0.11 mM"}
{"note": "Repeated from above:"}
{"SMILES": "CC1(C)CC2(C)OC(=O)NC2(C)c2ccccc21 (stereo not shown)", "target": "STUB1 (Homo sapiens, UniProt Q9UNE7)", "test": "binding, affinity selection mass spectrometry", "scale": "baseline: other proteins in batch", "endpoint": "fold enrichment", "result": 0.992}
{"SMILES": "Cc1cccc(N2CC(C(=O)O)CC2=O)c1 (stereo not shown)", "target": "Histone acetyltransferase type B catalytic subunit (Homo sapiens, UniProt O14929)", "test": "binding, affinity selection mass spectrometry", "scale": "baseline: other proteins in batch", "endpoint": "fold enrichment", "result": 1.1}
{"SMILES": "C[C@H]1O[C@H](O[C@H]2[C@H](O)[C@@H](O)[C@@H](O[C@H]3[C@H](O)[C@@H](O)C(O)O[C@@H]3CO)O[C@@H]2CO)[C@H](O)[C@@H](O)[C@@H]1N[C@H]1C=C(CO)[C@@H](O)[C@H](O)[C@H]1O (stereo partly shown)", "target": "Glycoside hydrolase family 13 protein (Bacteroides ovatus, UniProt A0ABU3INP3)", "test": "uncompetitive inhibitor", "setting": "pH 7.0, with: pNP-G6 substrate", "endpoint": "Ki", "result": "0.123 ± 0.0092 µM"}
